Measured values collected from several papers.
Lines come from different studies, so protocols differ. Values joined by “and” are separate records of one study, mostly repeats; a detail may differ. Numbers after ± are the reported error.

Structure (SMILES)	assay	system	conditions	scale	endpoint	result
CCCCC[C@@H]1NC(=O)[C@@H](C)N(C)C(=O)[C@H](CCCCC)N(C)C(=O)[C@@H](C)N(C)C(=O)[C@H](CCCCC)N(C)C(=O)[C@@H](C)N(C)C(=O)[C@H](CCCCC)N(C)C(=O)[C@@H](C)N(C)C1=O	PAMPA, HPLC-UV		500 µM, pH 7.4		log Papp	-5.24 ± 0.03
CC(C)=CCC/C(C)=C/CCn1cc(CC(C)(P(=O)(O)O)P(=O)(O)O)nn1	qRT-PCR, measured: Slco1b2 and Cyp3a11	CD-1 mice, liver	intravenous, 0.3 mg/kg	relative to: control	mRNA level	increased
C=CCN1CCC23c4c5ccc(OC(=O)c6ccc(N)cc6)c4OC2C(=O)CCC3(O)C1C5 (stereo not shown)		rat plasma	0.5 h, added: loperamide 100 µM		remaining compound	77.6% and 78% and 75%
CC(C(=O)O)n1nc(Cn2cc3cc(OCC[18F])c(Cl)cc3n2)c2ccccc2c1=O (racemic)	microPET	cynomolgus monkey, brain	post injection, 0-120 min		SUV	< 0.15
C[C@H](O)[C@@H](NC(=O)[C@H]1CCCN1C(=O)[C@@H](CCCCN)NC(=O)[C@@H](CO)NC(=O)[C@@H](Cc1ccc(O)cc1)NC(=O)[C@@H](CC(N)=O)NC(=O)CCOCCOCCOCCNC(=O)CN1CCN(CC(=O)O)CCN(CC(=O)O)CCN(CC(=O)O)CC1)C(=O)N[C@H](CC(=O)O)C(=O)N[C@H](CCCNC(=N)N)C(=O)N[C@H](CCC(N)=O)C(=O)N[C@H](Cc1ccc(O)cc1)C(=O)N[C@H](Cc1c[nH]cn1)C(=O)N[C@H](Cc1ccccc1)C(N)=O [gallium-68 labelled]		BALB/c nude mice U-87 MG tumour, muscle	intravenous, 1.85 MBq, 1 h, radiolabelled		tissue uptake	0.18 ± 0.02 %ID/g
CC(C)[C@@H]1NC(=O)CNC(=O)[C@H](CC(N)=O)NC(=O)[C@H](CCCNC(=N)N)NC(=O)[C@H](Cc2ccc(O)cc2)NC(=O)[C@H](C(C)C)NC(=O)[C@@H](NC(=O)[C@@H](NC(=O)[C@H](CC(N)=O)NC(=O)[C@H](Cc2c[nH]c3ccccc23)NC(=O)[C@H](C)NC(=O)[C@H](Cc2ccccc2)NC(=O)CNC(=O)[C@H](CCCCN)NC(=O)[C@H](Cc2ccccc2)NC(=O)[C@H](Cc2ccccc2)NC(=O)[C@H](CCCCN)NC(=O)OCC2c3ccccc3-c3ccccc32)C(C)C)CSSC[C@@H](C(=O)N[C@@H](Cc2c[nH]cn2)C(=O)N[C@@H](CCCNC(=N)N)C(=O)N[C@@H](CCCNC(=N)N)C(=O)N[C@@H](C)C(=O)N[C@@H](CC(N)=O)C(N)=O)NC(=O)[C@H](C(C)C)NC(=O)[C@H](CCCNC(=N)N)NC1=O		ICR mouse	ip, 10 mg/kg	direction not given	stimulus response score	0
C(#Cc1cncc(OC[C@@H]2CCN2)c1)c1ccccc1		male Sprague-Dawley rat, plasma	oral, 75 mg/kg, 5 h		concentration	300 ng/mL
CC(C)C[C@@H](NC(=O)[C@@H](CCCNC(=N)N)NC(=O)[C@@H](Cc1c[nH]cn1)NC(=O)[C@@H](Cc1c[nH]c2ccccc12)NC(=O)[C@@H](Cc1c[nH]cn1)NC(=O)[C@@H](Cc1ccccc1)NC(=O)[C@H](NC(=O)[C@@H](Cc1ccc(O)cc1)NC(=O)CNC(=O)CNC(=O)CCOCCOCCOCCNC(=O)CN1CCN(CC(=O)O)CCN(CC(=O)O)CC1)[C@H](C)O)C(=O)N[C@H](CC(N)=O)C(=O)N1CCC[C@@H]1C(=O)O [gallium-68 labelled]	OLINDA/EXM	adult male human, heart wall	extrapolated from C57BL/6 mice		organ absorbed dose	0.0103 ± 0.0002 mSv/MBq
CN1Cc2cc(Cl)ccc2-n2c(nnc2C2CCN(c3cccc([18F])n3)CC2)C1		C57BL/6 mouse male, urinary bladder	intravenous, 3.7 MBq, 15 min		tissue uptake	4.92 ± 0.73 %ID/g
CCc1nn(C)c2nc(-c3ccc(C(=O)O)cc3)nc(NCc3ccccc3)c12		male CD-1 mouse, plasma	intravenous, 1 mg/kg, 4 h		concentration	92 ng/mL
O=C1NC2(CC2)COc2ncc(F)cc2[C@H]2COCCN2c2ccn3ncc1c3n2		Sprague-Dawley rat, male, thymus	oral, 5 mg/kg/day, 4 weeks dosing, end of recovery		organ-to-body weight ratio	0.092 ± 0.021%
CCOc1ccccc1-n1c(CN2CCNCC2)nc2ccccc2c1=O		C57BL/6 mouse, male, plasma	intraperitoneal, 3 mg/kg		AUC(0-t)	1.11 µM·h
CCCC[C@H]1C(=O)N(C)[C@@H](CCCC)C(=O)N[C@@H](CCCNC(=O)CN2CCN(CC(=O)O)CCN(CC(=O)O)CCN(CC(=O)O)CC2)C(=O)N[C@H](C(=O)NCC(N)=O)CSCC(=O)N[C@@H](Cc2ccc(O)cc2)C(=O)N(C)[C@@H](C)C(=O)N[C@@H](CC(N)=O)C(=O)N2CCC[C@H]2C(=O)N[C@@H](Cc2c[nH]cn2)C(=O)N[C@@H](CC(C)C)C(=O)N(C)CC(=O)N[C@@H](Cc2c[nH]c3ccccc23)C(=O)N[C@@H](CO)C(=O)N[C@@H](Cc2c[nH]c3ccccc23)C(=O)N1C [gallium-68 labelled]		NOD/SCID mice, CHO-hPD-L1 xenograft, liver	60 min, PBS pretreatment		tissue uptake	7.35 ± 1.35 %ID/g
C=Cc1c(C)c2cc3nc(c(CC(=O)[O-])c4[n-]c(cc5nc(cc1[n-]2)C(C)=C5CC)c(C)c4C(=O)[O-])C(CCC(=O)[O-])C3C.[Cu+2].[Na+].[Na+].[Na+] (stereo not shown)		Wistar rat, male	oral, 250 mg/kg daily, 28 days		serum cholesterol	46.2 ± 5.78 mg/dL
CN1CCCCC1C(=O)NC(Cc1ccc(-c2ccccc2)cc1)B(O)O (stereo not shown)		Caco-2			Papp B→A	24 ×10⁻⁶ cm/s
CSCC[C@H](N)C(=O)N[C@@H](C)C(=O)N[C@@H](Cc1c[nH]c2ccccc12)C(=O)N[C@@H](Cc1c[nH]cn1)C(=O)N[C@@H](CC(=O)O)C(=O)N[C@@H](CC(=O)O)C(=O)N[C@@H](CCC(=O)O)C(=O)N[C@@H](CCC(=O)O)C(=O)N[C@@H](Cc1ccccc1)C(=O)N[C@@H](C)C(=O)N[C@@H](CCCNC(=N)N)C(=O)N[C@@H](CCCNC(=N)N)C(=O)N[C@@H](CCCNC(=N)N)C(=O)N[C@@H](CCCNC(=N)N)C(=O)NCCCCCC(=O)NCCCCC(NC(=O)CCCCCNC(=O)[C@H](CCCNC(=N)N)NC(=O)[C@H](CCCNC(=N)N)NC(=O)[C@H](CCCNC(=N)N)NC(=O)[C@H](CCCNC(=N)N)NC(=O)[C@H](C)NC(=O)[C@H](Cc1ccccc1)NC(=O)[C@H](CCC(=O)O)NC(=O)[C@H](CCC(=O)O)NC(=O)[C@H](CC(=O)O)NC(=O)[C@H](CC(=O)O)NC(=O)[C@H](Cc1c[nH]cn1)NC(=O)[C@H](Cc1c[nH]c2ccccc12)NC(=O)[C@H](C)NC(=O)[C@@H](N)CCSC)C(=O)NCCCCC(NC(=O)C(CCCCNC(=O)CCCCCNC(=O)[C@H](CCCNC(=N)N)NC(=O)[C@H](CCCNC(=N)N)NC(=O)[C@H](CCCNC(=N)N)NC(=O)[C@H](CCCNC(=N)N)NC(=O)[C@H](C)NC(=O)[C@H](Cc1ccccc1)NC(=O)[C@H](CCC(=O)O)NC(=O)[C@H](CCC(=O)O)NC(=O)[C@H](CC(=O)O)NC(=O)[C@H](CC(=O)O)NC(=O)[C@H](Cc1c[nH]cn1)NC(=O)[C@H](Cc1c[nH]c2ccccc12)NC(=O)[C@H](C)NC(=O)[C@@H](N)CCSC)NC(=O)CCCCCNC(=O)[C@H](CCCNC(=N)N)NC(=O)[C@H](CCCNC(=N)N)NC(=O)[C@H](CCCNC(=N)N)NC(=O)[C@H](CCCNC(=N)N)NC(=O)[C@H](C)NC(=O)[C@H](Cc1ccccc1)NC(=O)[C@H](CCC(=O)O)NC(=O)[C@H](CCC(=O)O)NC(=O)[C@H](CC(=O)O)NC(=O)[C@H](CC(=O)O)NC(=O)[C@H](Cc1c[nH]cn1)NC(=O)[C@H](Cc1c[nH]c2ccccc12)NC(=O)[C@H](C)NC(=O)[C@@H](N)CCSC)C(N)=O (stereo partly shown)		C57BL/6 mouse female, femur	dose not given, 3 h	relative to: total	mean tissue distribution	1.59%
CC(CCC(=O)NCC(=O)O)C1CCC2C3C(O)CC4CC(OC5OC(C(=O)O)C(O)C(O)C5O)CCC4(C)C3CCC12C (stereo not shown)		women, T/C genotype, plasma	dose not given, geometric mean		plasma concentration	29.6 ng/mL
CC[C@H](C)[C@H](NC(=O)[C@H](CCCCN)NC(=O)CNC(=O)[C@H](CC(C)C)NC(=O)[C@H](Cc1ccccc1)NC(=O)[C@H](CCCCN)NC(=O)[C@H](CO)NC(=O)[C@H](Cc1ccccc1)NC(=O)[C@H](Cc1c[nH]c2ccccc12)NC(=O)[C@H](CCC(N)=O)NC(=O)[C@@H](NC(=O)[C@H](Cc1ccccc1)NC(=O)CCCCCNC(=O)CN1CCN(CC(=O)O)CCN(CC(=O)O)CCN(CC(=O)O)CC1)C(C)C)C(=O)N[C@@H](CCC(=O)O)C(=O)N1CCC[C@H]1C(=O)N[C@@H](CC(=O)O)C(=O)N[C@H](C(=O)N[C@@H](CO)C(=O)N[C@@H](CCC(N)=O)C(=O)N[C@H](C(=O)N[C@@H](CCC(N)=O)C(=O)N[C@@H](CC(=O)O)C(=O)N1CCC[C@H]1C(=O)N[C@@H](CC(N)=O)C(=O)N[C@@H](CC(=O)O)C(=O)N[C@@H](CCC(N)=O)C(=O)N[C@@H](Cc1ccc(O)cc1)C(=O)N[C@@H](CCC(=O)O)C(=O)N1CCC[C@H]1C(=O)N[C@@H](Cc1ccccc1)C(=O)O)C(C)C)C(C)C [copper-64 labelled]	dynamic PET	mouse, CT26 tumour, untreated, tumour	intravenous, 100 µCi/mouse, 1380 s		SUVmean	0.59 SUV
CC(C)(CCCC/C=C/CCCCCC(C)(C)C(=O)O)C(=O)O	mass spectrometry	C57BL/6 mouse, liver	oral, 30 mg/kg, 1 h, single dose		concentration	15600 ng/g

Excerpt of the above:
Structure (SMILES)	assay	system	conditions	scale	endpoint	result
C(#Cc1cncc(OC[C@@H]2CCN2)c1)c1ccccc1		male Sprague-Dawley rat, plasma	oral, 75 mg/kg, 5 h		concentration	300 ng/mL
